Results gathered from unrelated publications.
Values joined by “and” are separate records of one study, mostly repeats; a detail may differ. ± gives the spread as reported.

Compound | target or system | test | system | setting | how to read | endpoint | value
CCCCCc1ccc(S(=O)(=O)N2CC2C(=O)OC)cc1 (centres unmarked) | – | – | mouse, Lewis lung carcinoma | intraperitoneal, 15 mg/kg, 16 doses, day 16 | – | tumour volume | 754 mm3
COC1CN([C@H]2CC[C@H]([C@@]3(C)Oc4c(Cl)cc(C(=O)NCc5c(SC)cc(C)[nH]c5=O)c(C)c4O3)CC2)C1 | – | RNA-seq, refers to: XKR6 | human, whole blood | dose not given, 24 h | relative to: pretreatment baseline | log2 fold change | 1.99
O=[N+]([O-])c1cc(Br)cc([N+](=O)[O-])c1NS(=O)(=O)c1ccc(Br)cc1 | – | RNA-seq, refers to: AT1G05680 | Arabidopsis thaliana Col seedlings | dose not given | relative to: DMSO | log2 fold change | 3.52
CC(=O)[O-].O.O.O.O.[Ni+2].[O-]c1ccc(Br)cc1C=NCCN1CCOCC1 | – | DPPH radical scavenging | – | 120 µM | – | inhibition | 30.2%
Cc1nn(C(C)C)c(C)c1CN1CCCC(CCC(=O)NCc2ccccc2F)C1 (centres unmarked) | Trypanosoma cruzi | reporter mRNA translation, inhibitor, refers to: capped polyadenylated Renilla luciferase mRNA | cell-free extract | concentration not given | relative to: positive over negative control | translation activity | 95.8% and 95.5% and 94.2% and 102%
COCCOCCOCCNC(=O)Cc1cc(CC(=O)N[C@H]2C[C@H]3C(=O)Nc4cc(OCCOCCOCCOC)cc(n4)C(=O)N4CCC[C@H]4C(=O)Nc4cc(OCCOCCOCCOC)cc(n4)C(=O)N4CCC[C@H]4C(=O)Nc4cc(OCCOCCOCCOC)cc(n4)C(=O)N3C2)cc(CC(=O)N[C@H]2C[C@H]3C(=O)Nc4cc(OCCOCCOCCOC)cc(n4)C(=O)N4CCC[C@H]4C(=O)Nc4cc(OCCOCCOCCOC)cc(n4)C(=O)N4CCC[C@H]4C(=O)Nc4cc(OCCOCCOCCOC)cc(n4)C(=O)N3C2)c1 | – | anion binding, ITC | water/methanol 95 vol% (97.7 mol%) | 298 K, together with: sodium iodide | – | ΔG | -5.091 ± 0.0478 kcal/mol
COC1OC(C)C(OS(=O)(=O)O)C(OC2OC(C)C(OS(=O)(=O)O)C(OC3OC(C)C(OS(=O)(=O)O)C(OS(=O)(=O)O)C3O)C2O)C1O (centres unmarked) | – | – | human plasma | 128 µg/mL | relative to: control | APTT prolongation | 1.4 fold
COc1ccccc1-c1ccncc1C(=O)Nc1nnc(OCc2ccc(Cl)cc2)s1 | – | – | Brca1 Δ11/Δ11 MEF sgGFP, Mus musculus | 20 µM, mean of runs 2, 3 | relative to: 0 µM | colony survival | 15.1%
COC1OC(C)C(OS(=O)(=O)O)C(OC2OC(C)C(OS(=O)(=O)O)C(OC3OC(C)C(OS(=O)(=O)O)C(OC4OC(C)C(OS(=O)(=O)O)C(OC5OC(C)C(OS(=O)(=O)O)C(OC6OC(C)C(OS(=O)(=O)O)C(OC7OC(C)C(OS(=O)(=O)O)C(OC8OC(C)C(OS(=O)(=O)O)C(OS(=O)(=O)O)C8O)C7O)C6O)C5O)C4O)C3O)C2O)C1O (centres unmarked) | – | – | human plasma | 128 µg/mL | relative to: control | APTT prolongation | 1.2 fold
C[C@@H]1CN(c2ccnc(C(=O)N[C@H]3C[C@@H]3c3ccccc3)c2)CC[C@@H]1O | – | – | female heterozygous Slc6a8 P549L mice, left brain hemisphere | oral, 30 mg/kg twice daily, 8 h | – | brain creatine level | 1190 µg/mL and 1280 µg/mL and 1200 µg/mL
CN1CCc2c(sc3c2c(=O)n(-c2ccccc2)c2nnc(SCc4ccccc4)n32)C1 | Trypanosoma cruzi | reporter mRNA translation, inhibitor, refers to: Renilla luciferase mRNA | cell-free extract | concentration not given, test 2 | relative to: positive over negative control | translation activity | 103% and 94.3%
N[C@@H](CNC(=O)N[C@@H](CS)C(=O)NCC(=O)O)C(=O)O | – | – | mouse C57BL/6, Aβ i.c.v. model, somatosensory cortex S1BF | intranasal, dose not given | – | GFAP immunoreactivity | 10.5 ± 0.5 % area
COc1cc(O)ccc1CCC(c1ccc(O)cc1)c1cc2c(c(C)c1O)OC(c1ccc(O)cc1)CC2 (mixture of isomers) | – | refers to: LTB4 | human whole blood | 3 µM, together with: Escherichia coli | – | amount | 4500 ± 1700 pg/mL blood
COc1ccccc1C1NCCc2cc(O)c(O)cc21 (centres unmarked) | – | ferrozine | cell-free | 100 µM, DMSO solvent | – | Fe2+ chelation | 94.78 ± 0.33%
